Assay results pooled from the literature.
A part holds a random share of what one study measured. Positions count from the first letter of the parent shown.

Block 1
Target: CCNB3, cyclin fold, Cln2 fusion (human)
Method: yeast growth competition, sequencing
Sample: yeast
Notes: strong parent motif
Baseline: not given
Reading: higher = stronger binding
Starting sequence: E2F1 docking peptide (human); PPVKRRLDFETDH; partner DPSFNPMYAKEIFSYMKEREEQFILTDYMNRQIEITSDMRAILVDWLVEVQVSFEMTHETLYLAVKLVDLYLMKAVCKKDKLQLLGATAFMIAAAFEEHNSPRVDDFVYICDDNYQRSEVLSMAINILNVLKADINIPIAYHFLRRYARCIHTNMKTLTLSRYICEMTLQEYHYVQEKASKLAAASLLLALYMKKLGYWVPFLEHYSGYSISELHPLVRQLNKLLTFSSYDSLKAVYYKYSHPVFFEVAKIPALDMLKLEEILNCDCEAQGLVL
`PEVKRRLDFETDH [P2E]`: “normalised enrichment score” 1.21.
Under “normalised enrichment score”, `PPVKRRLDFETLH [D12L]` is recorded as 3.
`PPVKRRLDFEFDH [T11F]` — result for “normalised enrichment score”: 2.96.
`PPVKFRLDFETDH [R5F]` — result for “normalised enrichment score”: 0.233.
Under “normalised enrichment score”, `PPAKRRLDFETDH [V3A]` is recorded as 1.58.
For `PPVKRRLDFCTDH [E10C]`, “normalised enrichment score” read 2.2.
Under “normalised enrichment score”, `PPVKDRLDFETDH [R5D]` is recorded as 0.0709.
`PPVKRPLDFETDH [R6P]` — result for “normalised enrichment score”: -0.166.
Under “normalised enrichment score”, `PMVKRRLDFETDH [P2M]` is recorded as 1.48.
`PPVKRRFDFETDH [L7F]`: “normalised enrichment score” 0.15.

Block 2
Molecule: PhoQ, residues 284 288 289 292 302 303 ALVSVA
Method: Sort-seq
Refers to: YFP reporter
Sample: E. coli
Notes: PhoQ-PhoP variant library
Together with: 10 µM Mg2+
Baseline: high Mg2+ state
Reading: higher = stronger signaling
PhoP, residues 12 14 15 18 19 ICWRQ (Escherichia coli, UniProt P23836) — fold induction: 9.98.
PhoP, residues 12 14 15 18 19 VHTVL (Escherichia coli, UniProt P23836) — fold induction: 25.2.
PhoP, residues 12 14 15 18 19 TQCLL (Escherichia coli, UniProt P23836) — fold induction: 17.2.

Block 3
Target: Histone acetyltransferase KAT6A, winged helix 2, GST fusion (KAT6A, Homo sapiens, UniProt Q92794, residues 85-181)
Method: protein binding microarray
Molecule type: double-stranded DNA, one strand shown
Sample: in vitro
Concentration: not given
Notes: 8-mer, flanks averaged, mean of 2 arrays, mostly near background
Baseline: not given
Reading: higher = stronger binding
Target sequence (chain): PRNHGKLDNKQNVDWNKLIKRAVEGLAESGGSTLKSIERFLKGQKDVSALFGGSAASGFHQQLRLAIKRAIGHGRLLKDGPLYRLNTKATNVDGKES
`CAGACTCG` has an E-score of -0.0352.
For `TGGTAACA`, the E-score was 0.0654.
The E-score of `AGGCAGAT` is reported as 0.0675.
`ACTCCGAT` gave an E-score of -0.0098.
`CCCTGTCC` has an E-score of -0.0464.
`TTCGGCAA` gave an E-score of 0.035.
With `GCAGCTAA` the E-score was 0.198.
The E-score of `AATCTCTC` is reported as -0.034.
For `ATACGCGC`, the E-score was 0.0908.
`TTATACAA` gave an E-score of 0.2.
With `ATATCTTA` the E-score was 0.163.
For `AACCTCTG`, the E-score was -0.0339.
With `GCAATCGC` the E-score was -0.0436.
For `AAGAGCGC`, the E-score was -0.0686.
The E-score of `TAGACAGA` is reported as 0.115.
`CGGTAATA` has an E-score of -0.111.
`ACAGTCAA` has an E-score of 0.0334.

Block 4
Target: Hepatocyte nuclear factor 3-beta, forkhead domain (FOXA2, Homo sapiens, UniProt Q9Y261, residues 142-269)
Method: protein-binding microarray
Molecule type: double-stranded DNA, one strand shown
Sample: in vitro
Concentration: not given
Notes: k-mer, scored over probes, only values ≥0.25
Reading: higher = stronger binding
Residues (chain): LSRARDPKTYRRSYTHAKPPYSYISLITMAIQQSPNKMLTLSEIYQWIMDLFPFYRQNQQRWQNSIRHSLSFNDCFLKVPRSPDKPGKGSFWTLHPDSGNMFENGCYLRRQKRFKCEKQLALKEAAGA
`ATTTGACA` has an E-score of 0.274.
`CTATATCA` gave an E-score of 0.276.
With `ATTAGAAC` the E-score was 0.267.
`ACAATATA` gave an E-score of 0.295.
With `TAACCAAA` the E-score was 0.302.
With `TATAGGAA` the E-score was 0.347.
`ATTATTCA` gave an E-score of 0.3.
`GTTAATGA` has an E-score of 0.252.
With `ATCATAAA` the E-score was 0.271.
With `TATATTCA` the E-score was 0.313.

Some of these lines once more (block 3):
`CCCTGTCC` has an E-score of -0.0464.
`TTCGGCAA` gave an E-score of 0.035.
With `GCAGCTAA` the E-score was 0.198.
The E-score of `AATCTCTC` is reported as -0.034.
For `ATACGCGC`, the E-score was 0.0908.
